Measured values pooled from the literature.
Parts stem from different laboratories: compare values within a part only.

Study 1
Target: RING finger protein unkempt homolog, zinc fingers 1-6, SBP tag (UNK, Homo sapiens, UniProt Q9C0B0, residues 30-357)
UniProt Q9C0B0, sequence (30-357, looked up): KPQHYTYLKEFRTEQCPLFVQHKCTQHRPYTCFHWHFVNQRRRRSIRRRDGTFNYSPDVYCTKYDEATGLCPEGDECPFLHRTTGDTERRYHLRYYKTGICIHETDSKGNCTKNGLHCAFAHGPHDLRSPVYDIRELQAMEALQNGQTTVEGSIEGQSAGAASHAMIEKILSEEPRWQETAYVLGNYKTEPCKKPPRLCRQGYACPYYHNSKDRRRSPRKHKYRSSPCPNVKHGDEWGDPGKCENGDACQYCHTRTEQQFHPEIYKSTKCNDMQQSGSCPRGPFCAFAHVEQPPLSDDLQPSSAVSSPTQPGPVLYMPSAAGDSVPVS
Technique: RNA Bind-n-Seq
Molecule type: RNA
Matrix: in vitro
Tested at: 100 nM
Notes: RNA with constant flanks, vertebrate orthologous sites, ends assumed
Relative to: input RNA pool
Direction: higher = stronger binding
Constant ends, left off below: GGGAGUUCUACAGUCCGACGAUC … CAACAGAGGAUUGAGCAUCA
Oligonucleotide | bound/input enrichment [ratio]
UGGGUUACUCCUAUUAUUAUCAAGUAGCUGGAAUUGUGAAGGUUGGAGUAGUUAGAUCUUUAGCUUUUAUUCAUUAUUUUUUGUAUUACUCUCCAUGUGUAUAAAUUAUUGAUCAUGUUG | 4.22
GAGCUAAAGGAGUUAGCAUCUUUAUUUUUGUAUCAAAGAUAAAGGUUAUUUUGAAAUUAUUAGGAUUUUUACACAAUUCUGAAAUCUGUUGCUUUUGUAAACAAAUUGUUUGAUCUUAAU | 1.05
UGAAAAUAGCUUCUGCUCCAUUGAGAGUAAAAAUAGUCCCAUGAAUAGAAAACUCCUAAGUAACUAUUUUUUAAAUAAAAAACGUUAAAUUUUGUAAAUCACCUGCUGCCACAAUACAAC | 0.928
CUCCCCUUAAUCCCAUCUCAUCUGUUUCAUAGUGCUGAAAUUCUGUCUUCAGCCUUAUUUUUAGCGAACUUAUUCUAAUUCUAGCGAAACUUCCAGUGUGGAUACUGUGAGCUAUAUGGA | 2.31
CAGCUGAUUCUCUCAUAGGGAGAGCUGCACACAUUGCUGUUCUUGAUUCAGAAAUAUUUUUAGAAAAGUUCUUUUUGGUUGCUGCCCUAAAAUAUUUCCAGUAGAAGAAAAGCAUUGCAA | 0.555
CCCGGGAACUCCUCUGGGGACAGGUGGUGGGGCCCACUGGCCAUGUCAUCCAGGCUGUUUUAGCUUCAUUUUUUUAAAAAAAAUUAACAGUGCCCUUAUUAACCUGUAUGACUGAGAUUU | 0.488
UCUAUACAAUUUUAAAAAUACUUCCUCAUAGGAUGCUUUGGGCCUUCAUCUAUUUAAUCAUAGCUACAUAUCUAUUUUUUAUAAGUAGCAGUACACAUUCAAAGGGGUAUUCCUAGCUCA | 0.728
CUGUUGUGUGAAACAUGUCUACCCAGAAAAGUAAUAUUCUACAAAUACUAUUAAACAACUUAGCUAUAUUAUUUUUAAGCAUUAAAUUAUACGUCAAGGAGUUAAAAUGAAUUUCAGAGU | 0.608

Study 2
Target: Interferon regulatory factor 5, full length, phosphomimetic (IRF5, Homo sapiens, UniProt Q13568-2, residues 1-514, S451D/S453D/S456D/S462D)
Technique: protein-binding microarray
Molecule type: double-stranded DNA, one strand shown
Matrix: in vitro
Tested at: 940 nM top
Notes: 60-bp whole probe
With: salmon DNA 0.4 mg/ml
Relative to: random background probes
Direction: higher = stronger binding
Constant ends, left off below: GCCTAGCAC … GTCTTGATTCGCTTGACGCTGCTG
Oligonucleotide | fitted relative affinity [z-score]
TTAGGACTGGGGACTGGGTCAGTGCTA | -0.435
TCATTTTTCTGATTGAAACTGTGCTAG | 0.581
AGCTGTTTCTGTGTCACAGAGTGCTAG | 1.39
TCAGCCAGCTCTTTCGTACTGTGCTAG | -0.00676
GACGGACTCCTTCTCCTGACGTGCTAG | 0.117
GACGCACTGGGGTATCGGGACGTGCTA | 0.491
TTAGAACTGAGTATCGATAAGTGCTAG | 3.4
TTAGGTATCGTACTGCTTTAGTGCTAG | 2.6
TCATATTCAGGTATATAACTGTGCTAG | 0.512
GACGATATCAGGCTCGAGACGTGCTAG | -0.31
TTAAGTTTCGACTATCGGTTAGTGCTA | 9.63
GACGGTTTCGACTATGGGGACGTGCTA | 7.7
TTAGGCTTCCTACTGCTTTAGTGCTAG | -0.016
GACGGTTTCAGTCTCGGGACGTGCTAG | 6.45
ACAGCTCTGCGGTTCAGATAGTGCTAG | -0.352
GACGGACTGGACACTCGGGACGTGCTA | -0.311
GACGATTTCAGTTTCGAGAGGTGCTAG | 4.44
GACGATCTCAGATTGGAGACGTGCTAG | -0.517
GACGATATGAGTCTCGAGACGTGCTAG | 0.855

Study 3
Target: Sal-like protein 4, full length isoform B (SALL4, Homo sapiens, UniProt Q9UJQ4-2, residues 1-616)
Technique: universal PBM
Molecule type: double-stranded DNA, one strand shown
Matrix: in vitro
Tested at: not given
Notes: 8-mer, flanks averaged, mean of replicates
Direction: higher = stronger binding
Oligonucleotide | E-score
AGAAGGTC | -0.0335
AGGGGTAA | -0.0162
CGCATTAG | -0.137
AGTTTATC | 0.159
ACTAATCG | 0.0193
ACGTAACC | -0.0296
CATACCCA | -0.00173
ATTTTGCA | 0.317
ACCGTGAC | -0.233
AAAATAAT | 0.373
ACGAGGGA | 0.0187
AGACGCTG | -0.162
CCTCCAGC | -0.154
ACGGGTAT | 0.111
GCGCCCGC | -0.297
ACTCCTTC | -0.125
CGTCGGCC | -0.258
TACTGTGA | 0.0989
AAGTTGCT | 0.00263
ACCTGTAG | -0.0916
ACGGATGG | -0.0839
GTAACCAC | -0.149
GGATTAGA | -0.0486
AGCTGAAA | 0.118
CCCCTAGA | 0.0635

Study 4
Organism: Saccharomyces cerevisiae
Effect on: binding
Technique: yeast competitive growth sequencing
Molecule type: peptide
Notes: cyclin B2-Cln2 chimera
Direction: direction not given
Sequence | enrichment score
KPHVSDEEEEEPPFYH | 1.24
IVLICAKRSLCAAFSV | -1.31
FQDSGYNELKSCSFDN | 0.859
DTERAHSTLDEDLERW | 0.87
KPKPVKPVTFSTGIKM | 1.19
PARRRLRLSVDEVSSP | -0.129
SAVPLILPQAPSGPSY | 1.16
PAKRRLELGE | 0.631
VLVRTSACRSLFGPVD | -0.0227
GLPDFVFQQQPVESEA | 0.525

Excerpt of the above (study 2):
Oligonucleotide | fitted relative affinity [z-score]
TCATATTCAGGTATATAACTGTGCTAG | 0.512
GACGGACTGGACACTCGGGACGTGCTA | -0.311
GACGGTTTCAGTCTCGGGACGTGCTAG | 6.45
TTAGGTATCGTACTGCTTTAGTGCTAG | 2.6
GACGGACTCCTTCTCCTGACGTGCTAG | 0.117
TTAGAACTGAGTATCGATAAGTGCTAG | 3.4
